# Assay results collected from several papers.
# Each line is one published result; not all experiments were run side by side. ± gives the spread as reported.
Molecule,organism,test,system,setting,how to read,endpoint,value
CC(=O)N[C@@H](C)C(=O)N[C@@H](CCC(N)=O)C(=O)N[C@@H](CCCCN)C(=O)N[C@@H](CC(C)C)C(=O)N[C@@H](CC(C)C)C(=O)N[C@@H](CCCCN)C(=O)N[C@@H](CCCCN)C(=O)N[C@@H](Cc1ccccc1)C(=O)N[C@@H](CO)C(=O)N[C@@H](CC(C)C)C(=O)N[C@@H](CC(C)C)C(=O)N[C@@H](CCCCN)C(=O)N1CCC[C@H]1C(=O)N[C@@H](Cc1c[nH]c2ccccc12)C(=O)N[C@@H](C)C(=O)O,Pseudomonas aeruginosa,Fe2+ uptake,"PA14, iron-depleted","25 µM, 45 min pretreatment, 35 °C, together with: FeSO4 100 µM, 15 min",,inhibition,61%
CC1(C)SC2C(NC(=O)C(NC(=O)C3=C(O)C4CCCN4C3=O)c3ccccc3)C(=O)N2C1C(=O)O (centres unmarked),Escherichia coli,broth microdilution,"BW25113, Mueller-Hinton broth","18 h, without clavulanic acid",,MIC,200 µg/mL
colistin,Pseudomonas aeruginosa,checkerboard titration,17-99,together with: magainin II,,FIC index,1
CC1(C)SC2C(NC(=O)C(NC(=O)C3=C(O)C(c4ccccc4)NC3=O)c3ccccc3)C(=O)N2C1C(=O)O (centres unmarked),Escherichia coli,broth microdilution,"BW25113, Mueller-Hinton broth",,,MIC,100 µg/mL
COc1ccc(-c2cn([C@@H]3O[C@H](CO)[C@@H](O)[C@H]3O)c3ncnc(N)c23)cc1,Trichomonas vaginalis,resorufin,"G3, metronidazole-sensitive","24 h + 2 h, 2% O2",,EC50,210 ± 40 nM
O=c1[nH]c(=O)c2ncn(CC(CO)OCP(=O)(O)O)c2[nH]1 (racemic),herpes simplex virus 1,cytopathic effect,"HEL, KOS",,,EC50,39000 ± 27000 nM
Cc1ccc(-c2cn([C@@H]3O[C@H](CO)C[C@H]3O)c3ncnc(N)c23)cc1Cl,Trichomonas vaginalis,resorufin,"G3, metronidazole-sensitive","24 h + 2 h, 2% O2",,EC50,420 ± 21 nM
C[C@H]1[C@H](C)CC[C@]2(CO)CC[C@]3(C)C(=CC[C@@H]4[C@@]5(C)CC[C@H](O)C(C)(C)[C@@H]5CC[C@]43C)[C@H]12,Eimeria tenella,,"MDBK, sporozoites",maximum non-toxic concentration,baseline: DMSO,invasion rate,78.9%
Nc1ncnc2c1c(-c1ccc(Cl)cc1)cn2[C@@H]1O[C@H](CO)C[C@H]1O,Trichomonas vaginalis,resorufin,"G3, metronidazole-sensitive","24 h + 2 h, 2% O2",,EC50,170 ± 44 nM
CCC(=O)Nc1cc(C(=O)Nc2ccc(Cl)cc2)ccc1O,Enterovirus A,cytopathic effect,"Vero, EV71",48 h,,IC50,11700 nM
Cc1ccc(-c2cn([C@@H]3O[C@H](CO)[C@@H](O)[C@H]3O)c3ncnc(N)c23)cc1C,Trichomonas vaginalis,resorufin,"G3, metronidazole-sensitive","24 h + 2 h, 2% O2",,EC50,430 ± 8 nM
CC[C@H]1OC(=O)[C@H](C)[C@@H](O[C@H]2C[C@@](C)(OC)[C@@H](O)[C@H](C)O2)[C@H](C)[C@@H](O[C@@H]2O[C@H](C)C[C@H](N(C)C)[C@H]2O)[C@](C)(OC)C[C@@H](C)C(=O)[C@H](C)[C@@H](O)[C@]1(C)O,Pseudomonas aeruginosa,checkerboard broth microdilution,clinical isolate 17-99,together with: ranalexin,,FIC index,0.25
CC[C@@H](C(=O)[C@@H](C)[C@@H](O)[C@H](C)CCc1ccc(C)c(O)c1C(=O)O)[C@H]1O[C@](CC)([C@H]2CC[C@](O)(CC)[C@H](C)O2)C[C@@H]1C,Eimeria tenella,,sporozoites,"1 µM, 24 h",baseline: DMSO,viability,21.9%
Cn1cnc(-c2cn(C3OC(CO)C(O)C3O)c3ncnc(N)c23)c1 (centres unmarked),Trichomonas vaginalis,resorufin,"G3, metronidazole-sensitive","24 h + 2 h, 2% O2",,EC50,2100 ± 336 nM
CC(C)CC1NC(=O)C(C(=O)NC(C(=O)NC2C(=O)N3C2SC(C)(C)C3C(=O)O)c2ccccc2)=C1O (centres unmarked),Acinetobacter baumannii,"microbial growth, broth dilution",ATCC19606,,,MIC,50 µg/mL
O=c1[nH]c(=O)c2ncn(C[C@H](CF)OCP(=O)(O)O)c2[nH]1,herpes simplex virus 2,cytopathic effect,"HEL, G",,,EC50,> 313000 nM
O=C(CCc1ccc(O)cc1)c1c(O)cc(O)cc1O[C@@H]1O[C@H](CO)[C@@H](O)[C@H](O)[C@H]1O,Eimeria tenella,,"MDBK, sporozoites",maximum non-toxic concentration,baseline: DMSO,invasion rate,87.2%
Nc1ncnc2c1c(-c1ccccc1)cn2[C@@H]1O[C@H](CO)C[C@H]1O,Trichomonas vaginalis,resorufin,"G3, metronidazole-sensitive","24 h + 2 h, 2% O2",,EC50,8300 ± 970 nM
CC1(C)SC2C(NC(=O)C(NC(=O)C3=C(O)C(Cc4ccc(O)cc4)NC3=O)c3ccccc3)C(=O)N2C1C(=O)O (centres unmarked),Acinetobacter baumannii,"microbial growth, broth dilution",ATCC19606,,,MIC,100 µg/mL
Nc1ncnc2c1c(-c1ccc(C(F)(F)F)cc1)cn2[C@@H]1O[C@H](CO)C[C@H]1O,Trichomonas vaginalis,resorufin,"G3, metronidazole-sensitive","24 h + 2 h, 2% O2",,EC50,260 ± 75 nM
C[C@H]1c2cccc(O)c2C(=O)C2=C(O)[C@]3(O)C(=O)C(C(N)=O)=C(O)[C@@H](N(C)C)[C@@H]3[C@@H](O)[C@@H]21,Pseudomonas aeruginosa,checkerboard broth microdilution,clinical isolate 17-99,together with: magainin II,,FIC index,2
CC(C)C1NC(=O)C(C(=O)NC(C(=O)NC2C(=O)N3C2SC(C)(C)C3C(=O)O)c2ccccc2)=C1O (centres unmarked),Escherichia coli,broth microdilution,"BW25113, Mueller-Hinton broth","18 h, without clavulanic acid",,MIC,100 µg/mL
Nc1ccn(C[C@@H](CO)OCP(=O)(O)O)c(=O)n1,herpes simplex virus 2,cytopathic effect,"HEL, G",,,EC50,0.7 ± 0.37 µg/mL
CC(C)C[C@H](NC(=O)[C@H](CCc1ccccc1)NC(=O)CN1CCOCC1)C(=O)N[C@@H](Cc1ccccc1)C(=O)N[C@@H](CC(C)C)C(=O)[C@@]1(C)CO1,Babesia divergens,,erythrocyte culture,"48 h, parasitemia below starting 2%",,parasiticidal concentration,≥ 100 nM
CN(C)c1c(Cc2cccc3ccccc23)cc(=O)n2c1SCC2C(=O)Nc1ccccc1 (centres unmarked),Chlamydia trachomatis,"infectivity, second cycle","HeLa, serovar L2","2.5 µM, 48 h",baseline: DMSO,inhibition,~90%
Cc1ccc(Cn2cc(/C=C3\SC(=S)NC3=O)c3cc([N+](=O)[O-])ccc32)cc1,Trypanosoma equiperdum,,"trypomastigotes, IVM-t1",,,IC50,> 70000 nM
Nc1ncnc2c1c(-c1cccc(Cl)c1)cn2[C@@H]1O[C@H](CO)[C@@H](O)[C@H]1O,Trichomonas vaginalis,resorufin,"G3, metronidazole-sensitive","24 h + 2 h, 2% O2",,EC50,240 ± 48 nM
Nc1ncnc2c1ncn2CCOCP(=O)(O)O,herpes simplex virus 2,cytopathic effect,"primary human keratinocytes, G",,,EC50,13 ± 2.1 µg/mL
CCOC(=O)c1c(N)csc1-c1cn(-c2ccccc2)nc1-c1ccc(C)cc1,Acinetobacter baumannii,broth microdilution,clinical urinary isolate,compound gamma-irradiated 0 kGy,,MIC,0.24 ± 0.1 µg/mL

# Excerpt of the above:
Molecule,organism,test,system,setting,how to read,endpoint,value
Nc1ccn(C[C@@H](CO)OCP(=O)(O)O)c(=O)n1,herpes simplex virus 2,cytopathic effect,"HEL, G",,,EC50,0.7 ± 0.37 µg/mL
CC(C)C[C@H](NC(=O)[C@H](CCc1ccccc1)NC(=O)CN1CCOCC1)C(=O)N[C@@H](Cc1ccccc1)C(=O)N[C@@H](CC(C)C)C(=O)[C@@]1(C)CO1,Babesia divergens,,erythrocyte culture,"48 h, parasitemia below starting 2%",,parasiticidal concentration,≥ 100 nM
